# Published values collected from several papers.
# A part holds a random share of what one study measured.

# Study 1 — method: RNA Bind-n-Seq; form: RNA; sample: in vitro; tested at: 200 nM; setting: whole 134-nt RNA, ends assumed; with: 150 mM KCl; baseline: input library; reading: higher = stronger binding
# Target: Fragile X messenger ribonucleoprotein 1, C-terminal low-complexity region (Fmr1, Mus musculus, UniProt P35922)
Sequence,log2 enrichment
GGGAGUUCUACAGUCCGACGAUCACCAUGCAGGUGGGUAUCUUUGGGAAGUGGGGCAAGGGGGGGAUAGGGAGGGGGGUAACACUUUGGGAACAGGUGGUCCCAGGUCGUUUCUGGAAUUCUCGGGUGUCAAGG,0.635
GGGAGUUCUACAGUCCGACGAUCCCUGUGCUACACAUCGUAUGUACCGAAUCGGGAAAAAAAGGAAAAAAAGGAAAAAAAGGGGAAAGUAUUAUGUUACGCCGUUCGGAUCUGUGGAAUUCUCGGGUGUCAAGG,-1.09
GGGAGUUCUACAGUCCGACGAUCAGUCCUGUGCUACACAUCGUAUGUACCGAAUCGGAAAAAGGGGAAAAAGGAAAAAGGAAAGUAUUAUGUUACGCCGUUCGGAUCUGCACUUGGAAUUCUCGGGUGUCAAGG,-0.606
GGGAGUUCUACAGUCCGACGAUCGCAGGAAGUAAAAACAAAUGGAAAUGCUUCGGAUAGUGGGAGGGGUGGGGGUUGCUAAGGAAAGGGUGGGAUGGGAGUGGGUAAAGAGUUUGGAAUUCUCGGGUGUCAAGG,-0.244
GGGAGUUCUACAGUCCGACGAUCCACAGACAACACGCACCCACACAGACACAGAGGGAAGGGGUUGGGAUGGGGACAGGGUGAACAGCAGGGCGGGGUAGGACCCCAGCCCCUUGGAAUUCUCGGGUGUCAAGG,1.22
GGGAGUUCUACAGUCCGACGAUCCCUCAAGUCCUGUGCUACACAUCGUAUGUACCGAAUCGGGCCGGCCGGCCGGGAAAGUAUUAUGUUACGCCGUUCGGAUCUGCACUUCCAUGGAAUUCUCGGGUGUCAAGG,0.0394
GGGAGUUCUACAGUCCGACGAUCGUCCUGUGCUACACAUCGUAUGUACCGAAUCGGGGUUUGGGGAAAAAGGGGAAAGGGGAAAGUAUUAUGUUACGCCGUUCGGAUCUGCACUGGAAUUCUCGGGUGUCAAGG,0.311
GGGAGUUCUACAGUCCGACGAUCUGGCCCUGGUGGCAUGCGGGGAGGAAGAGGUGGCCUCAUGGAUCGUGGUGGUCCCGGUGGAAUGUUGAGAGGUGGCCGUGGUGGAGACAGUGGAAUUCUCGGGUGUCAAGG,0.0483
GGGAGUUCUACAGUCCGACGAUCUCCUGUGCUACACAUCGUAUGUACCGAAUCGGGGAGGGGUUUUUGGGGUUUUUUUGGGGAAAGUAUUAUGUUACGCCGUUCGGAUCUGCAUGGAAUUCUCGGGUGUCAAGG,0.827
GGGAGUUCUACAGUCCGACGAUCCCUGUGCUACACAUCGUAUGUACCGAAUCGGGGCCCCCCGGGCCCCCCGGGCCCCCCGGGAAAGUAUUAUGUUACGCCGUUCGGAUCUGCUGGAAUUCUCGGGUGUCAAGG,-0.723

# Study 2 — method: RNA Bind-n-Seq; form: RNA; sample: in vitro; tested at: 365 nM; baseline: no-protein control; reading: higher = stronger binding
# Target: RNA binding protein fox-1 homolog 2, RRM domain, GST-SBP tag (RBFOX2, Homo sapiens, UniProt O43251-10, residues 100-194)
# Setting: natural RNA segment, single round, ends assumed
# Residues (chain): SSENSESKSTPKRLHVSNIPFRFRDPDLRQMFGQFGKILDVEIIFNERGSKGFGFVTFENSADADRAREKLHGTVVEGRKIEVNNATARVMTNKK
Sequence,RBNS enrichment (R)
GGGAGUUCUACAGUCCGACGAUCUGCGCCACCUUCACCUGGGUUUUCUUUCUUAAAGGAACAGGUUAGAGCAAGUGACCGUUGAGGACAGGUGAUGUGAAUGUUUGUUCUAGAUUUAAUUCAGUUUUCUGAAUUGGAAUUCUCGGGUGCCAA,0.528
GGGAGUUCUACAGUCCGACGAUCAAGCUAAAUAUUAUAUAUUUUAUUUUUCAUACAUGUUUGAAGUGCAAAUCUGUGGAUAUUCCAUUUGUAGGACCAAGUCGACAUGCCCAUCCUGACAUUGUAUGCUACGAUGGAAUUCUCGGGUGCCAA,0.547
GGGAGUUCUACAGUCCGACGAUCCCUUCCUGUCUAGGGAGAAUUGCUGCUAGUAAGGUCAGUUUGCAAUGUUCAGCUUUAGAUAUGUGUCGUAAUGGGAGUCUGAAAACUGUAAUAAACUGUAUUCAUAUCCUUGGAAUUCUCGGGUGCCAA,0.548
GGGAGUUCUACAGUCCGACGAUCAAAAAGCUUUUAGUUGCUAAUUUGUUUCCGCUGAGCCAAGUGUUUGAGAAACCUGGACUAGAGCUUAGCACUCCCACUUGCAGCCUGGCAGGACCUGUGGAGCCAUUAACUGGAAUUCUCGGGUGCCAA,0.39
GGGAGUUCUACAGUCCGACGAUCCACAGAAAGGAUGUAGAAGGGUGCCAUCUGUGUGCCUUCUCUGACAUCUCAAGGGACUUGCCCAGGACAUGGAACUGUGGCCUCCUUGACAAACCUAUCUCUUGGACUCAUGGAAUUCUCGGGUGCCAA,0.479
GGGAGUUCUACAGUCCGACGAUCGGCCUAAGAUUUUGAGUUAACAUCUCUUGAAGCCAAACUCCACCUUCUGUGCUUUUUGCUUGGGAUAAUGGAGUUUUUCUUUAGAAACAGUGCCAAGAAUGACAAGAUAUUGGAAUUCUCGGGUGCCAA,0.25
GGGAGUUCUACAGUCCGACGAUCGAAAGUUGGAAGCUCAUAUCCCCAUAGUCGCAGAUCACGAUGUAAAUCACUGUAAUUAAAAUUGGUGUUAAAUCCUUUGGGUUUUCCACUGCCUUAAAAUGAUACUUAUUUGGAAUUCUCGGGUGCCAA,0.413
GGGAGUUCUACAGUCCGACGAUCGUGGCUCUUCCAGCCUGCAGGGACAGUAAAGGAAGCCAUGGACACUGGCCCCAAGAACUGAUAAGACUCCAGUGGGGGACCACCACAUUCAUAGCCCCGUCACAGGAAGUUGGAAUUCUCGGGUGCCAA,0.632
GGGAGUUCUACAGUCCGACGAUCUCACCUGAUAGUAGAAUAUUAGAAUCUUAUUUUUUAAAUGUCUUCAGGGAACUGAGCAAAUGUUUGUUGUUUUUUUUUUUCCUGAUGUUUUCUUGAAAAGCCUUUCUCUUUGGAAUUCUCGGGUGCCAA,1.26
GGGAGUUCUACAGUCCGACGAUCGGGUAUAUAAGGCUUAAGAAUUUGGUCUAUGCCAGGCGUGGUGGCGCAUGCCUUUAAUCCCAGCACUCGGGAGGCAGAGGCAGGCGGAUUUUUGAGUUCAAGGGCAGCCUUGGAAUUCUCGGGUGCCAA,0.851
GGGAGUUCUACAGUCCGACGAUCAUUAAAAGGGGACUAAAAAUUUGUUUUGUAUAAAGAGGAUAGCCCUGCGCACGUAGGACUGAAUUCAGUGAUAUCCCUAUACACUGCCAAUUAGUGGAUAGGUUAUUGUAUGGAAUUCUCGGGUGCCAA,0.594
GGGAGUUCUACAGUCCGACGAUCUCUGCAUCAGUUGCUUCUAUAGAGCAUCAGCCCUCAUGUUUCAUUGUCUUAAUGUCGGGGAGCAGCCUGGUGUCCUGCCCCAGGUGUCCGCAUUUUUGCAUGGUAAGGAAUGGAAUUCUCGGGUGCCAA,4.46

# Study 3 — method: competition protein-binding microarray; form: double-stranded DNA, one strand shown; sample: in vitro; tested at: 2 µM; with: Cbf1 competitor, 0.05 µM; reading: higher = stronger binding
# Target: Phosphate system positive regulatory protein PHO4, full length, GST-tagged (PHO4, Saccharomyces cerevisiae, UniProt P07270, residues 1-312)
# Setting: whole 60-bp probe, lowest competitor level
# Residues (chain): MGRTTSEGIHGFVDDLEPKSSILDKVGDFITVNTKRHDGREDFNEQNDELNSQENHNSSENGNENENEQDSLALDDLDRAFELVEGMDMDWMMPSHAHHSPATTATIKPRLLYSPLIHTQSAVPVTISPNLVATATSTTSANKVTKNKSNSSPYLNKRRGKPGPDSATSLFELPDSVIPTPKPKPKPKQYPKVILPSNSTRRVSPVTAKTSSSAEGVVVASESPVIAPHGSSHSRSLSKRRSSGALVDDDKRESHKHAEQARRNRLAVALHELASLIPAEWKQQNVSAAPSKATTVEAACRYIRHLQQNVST
Sequence,fluorescence intensity
AAAGCGGTAATTTGGTTCGTGGGTGCAGATATCTATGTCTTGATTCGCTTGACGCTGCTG,7100 a.u.
AAAATAGCTGAAATTCACGTGTTGAATTACCGCATCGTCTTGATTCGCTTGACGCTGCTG,12800 a.u.
AAATTACTAAGTTGTCACTCCACTTACCCCGTATGAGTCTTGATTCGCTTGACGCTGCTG,3830 a.u.
CATACCCAACCTTGGTGTGTGGGTGAAGATATTTGTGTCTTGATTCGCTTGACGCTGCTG,5950 a.u.
ACTTTGCAAAAAAAGCACGCAGCAGGAAGCTCTTGAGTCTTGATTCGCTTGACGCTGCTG,9390 a.u.
TGGAATGCATAAAAGAATGTGATGAAGTGTTTCCAAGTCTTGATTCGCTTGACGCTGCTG,5130 a.u.
TTCTGATAAGCCCATCACGTGACGGTGGTTCTAAGAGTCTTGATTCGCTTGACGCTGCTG,13100 a.u.
AATTGTCTAAAATTCGTCGTGCTTTCAGAGACTTGTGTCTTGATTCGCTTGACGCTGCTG,5730 a.u.
TGCGCAACAACTTGACGCGTGGGTGTATGTCTAGAAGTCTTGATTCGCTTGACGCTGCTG,10000 a.u.
GCTCTAGTAATTGTCTACGTGCCGAATCGTTTCTCTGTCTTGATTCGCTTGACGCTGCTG,7130 a.u.
CTGTTTCTTCTCCATACTTTCAAATATTCAAATTGAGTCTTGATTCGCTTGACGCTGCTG,4070 a.u.
TGCGCAACAACTTGGGGGGTGGGTGTATGTCTAGAAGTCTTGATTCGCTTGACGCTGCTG,5710 a.u.
GCCAGAAGTTCCTGTCACACTCTGCAAATTATCCCGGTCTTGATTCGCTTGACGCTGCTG,4820 a.u.
TTGGCACTTCGCACAGGCGTGACTCGTTTCTGTGAAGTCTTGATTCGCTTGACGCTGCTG,5980 a.u.
CCTTCGACCTTCCATCACGTGCAAATAGCTTAATATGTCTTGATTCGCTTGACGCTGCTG,19200 a.u.
TTGTAAGATTCTACTCCCGTGAAGATCCCAATCGCTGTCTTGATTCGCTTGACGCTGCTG,3740 a.u.
AAATTACTAAGTTGCGCGGTGGGTGACGCCGTATGAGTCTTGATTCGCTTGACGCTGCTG,4020 a.u.
AGTAGAACTCGTCGGCACGTTCAAAGACCAAGAATTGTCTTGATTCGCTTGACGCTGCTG,10600 a.u.
TTACAAGTTATGCCTCACGTTACCTGGATCCTGCATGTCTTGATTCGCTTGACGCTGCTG,7020 a.u.

# Study 4 — method: universal PBM; form: double-stranded DNA, one strand shown; sample: in vitro; tested at: not given; reading: higher = stronger binding
# Target: Sal-like protein 4, full length isoform B (SALL4, Homo sapiens, UniProt Q9UJQ4-2, residues 1-616)
# Setting: 8-mer, flanks averaged, mean of replicates
Sequence,E-score
TCGGTCCA,-0.223
CTAAGTCC,-0.211
CAAACTAA,0.154
GTAGTCTA,0.136
CGCACTGA,-0.223
CAGATCAG,-0.0102
ACTTCACT,0.0746
CAGTGCTA,-0.114
ATTTCGCA,0.0882
ATTGCAAC,0.0202
CCAGTATC,-0.111
AGTTTACG,0.0689
GACAGCAA,0.0526
CCATCCCA,-0.0024
AACCGGTG,-0.305
CAAAACAG,0.136
ACAGTACA,0.145
AGGACGGC,-0.221
CGCAAGGA,-0.196
TAGGGGGA,-0.0694
TAAGTGCA,0.0971
ATCTCAGC,-0.0634
CGCTAATA,0.221

# A few entries again (study 4):
Sequence,E-score
CAGTGCTA,-0.114
ATTTCGCA,0.0882
ATTGCAAC,0.0202
CCAGTATC,-0.111
AGTTTACG,0.0689
GACAGCAA,0.0526
CCATCCCA,-0.0024
AACCGGTG,-0.305
CAAAACAG,0.136
ACAGTACA,0.145
